Results pooled from the literature.
Lines come from different studies, so protocols differ. Values joined by “and” are separate records of one study, mostly repeats; a detail may differ. ± gives the spread as reported.
rep main protease: Replicase polyprotein 1ab, main protease (rep, Severe acute respiratory syndrome coronavirus 2, UniProt P0DTD1)

OCCN1CCN(CCCN2c3ccccc3Sc3ccc(C(F)(F)F)cc32)CC1
inhibition (Chikungunya virus; replicon luciferase activity; BHK-21 CHIKV replicon cells; 20 µM, 48 h): ≥ 80%

CCOc1cc2c(cc1NC(=O)c1ccc(C(C)(C)C)cc1)CCC2
EC90 (Chikungunya virus; viral replication; NHDF): > 6 µM

CC(C)=CCC/C(C)=C/Cc1c(O)ccc(C(=O)/C=C/c2ccc(O)cc2)c1O
inhibition (Chikungunya virus; replicon luciferase activity; BHK-21 CHIKV replicon cells; 20 µM, 48 h): ≥ 80%

CC(C)(C)c1ccc(C(=O)Nc2cc3c(cc2F)CCCCC3)cc1
EC90 (Chikungunya virus; viral replication; NHDF): 0.8 µM

N[C@H](CCC(=O)N[C@H](CCC[C@H](N)C(=O)O)C(=O)O)C(=O)O
infectivity (Chikungunya virus; viral infection; concentration not given): 172% and 169% and 167% and 121%

O=C(N1CCC2(CC1)CC(CN1CCCS1(=O)=O)CCO2)C1(c2ccccc2)CCCC1 (stereo not shown)
EC50 (Chikungunya virus; viral replication): 0.13 µM

COc1cc2c(cc1NC(=O)c1ccc(C(C)(C)C)cc1)CCCC2
EC90 (Chikungunya virus; viral replication): 0.39 µM

CNc1nc(N)ncc1-c1cn([C@@H]2O[C@H](CO)[C@@H](O)[C@@]2(C)F)cn1
antiviral activity (Chikungunya virus; concentration not given): inactive

Cc1nc2c(=O)n(C)c(=O)nc-2n(C)n1
inhibition (Chikungunya virus; replicon luciferase activity; BHK-21 CHIKV replicon cells; 20 µM, 48 h): ≥ 80%

Nc1cccc(C(=O)NC[C@H](NC(=O)c2cnc3n[nH]nc3c2)c2ccc3ccccc3c2)c1
inhibition (rep main protease; enzyme activity, inhibitor; 5 µM, run 2): 12%

Cc1cc2c(cc1NC(=O)c1ccc(C(C)(C)C)cc1)CCCCC2
EC90 (Chikungunya virus; viral replication; NHDF): 2.41 µM

Cc1cc(C)cc([C@@H]2C[C@H]2C(=O)NC(C(=O)NC(C)(C)C)c2ccc(C)c(C)c2)c1 (stereo partly shown)
effective concentration (Chikungunya virus; viral protein expression, Western blot, refers to: nsP1, nsP2, capsid; BHK-21; 6 h): > 50 µM

NC(=O)c1ncn([C@@H]2O[C@H](CO)[C@@H](O)[C@H]2O)n1
EC50 (Chikungunya virus; viral replication; BHK-21, CHIKV): 46 µM

Nc1ncnc2c1ncn2[C@@H]1O[C@@H]2COP(=O)(O)O[C@H]3[C@@H](O)[C@H](n4cnc5c(=O)[nH]cnc54)O[C@@H]3COP(=O)(O)O[C@H]2[C@H]1O
fold enrichment (Chikungunya virus; upregulated Reactome pathway, RNA sequencing, refers to: tRNA processing (R-HSA-72306); HFF-1; baseline: CHIKV-infected untreated): 2.43

CCc1cc(=O)n2c(=O)/c(=C/c3cccc4ccccc34)sc2n1
inhibition (Chikungunya virus; virus-induced cell death, MTS/PMS; BGM, Indian Ocean strain 899; 20 µg/mL): 29%

CC(C)=CCC[C@]1(C)C=Cc2c(O)c3c(c(CC=C(C)C)c2O1)O[C@]12C(=C[C@@H]4C[C@H]1C(C)(C)O[C@@]2(C/C=C(/C)C(=O)O)C4=O)C3=O
Kd (Spike glycoprotein (Severe acute respiratory syndrome coronavirus 2, UniProt P0DTC2); binding, biolayer interferometry): 27.2 µM

O=C(N1CCC2(CC1)OCC(CN1CCCCS1(=O)=O)O2)C1(c2ccccc2)CCCC1 (stereo not shown)
EC50 (Chikungunya virus; viral replication): 8 µM

CCN(CC)CCCC(C)Nc1c2ccc(Cl)cc2nc2ccc(OC)cc12 (stereo not shown)
inhibition (Chikungunya virus; replicon luciferase activity; BHK-21 CHIKV replicon cells; 20 µM, 48 h): ≥ 80%

Cn1cnc(Cn2c(=O)[nH]/c(=N\c3cc4cn(C)nc4cc3Cl)n(Cc3cc(F)c(F)cc3F)c2=O)n1
anaemia TEAE, Moderate severity (human, mild renal impairment; oral, 375 mg): 0%

COc1cc2c(cc1-c1cc(-c3ccc(C(C)(C)C)cc3)n[nH]1)CCCCC2
EC90 (Chikungunya virus; viral replication; NHDF): 1.5 µM

O=C(/C=C/c1ccc(O)c(O)c1/C=C/c1ccc(O)c(O)c1)O[C@H](Cc1ccc(O)c(O)c1)C(=O)O
inhibition (rep main protease; reporter gene (mKate2), inhibitor; 20 µM): -1.15%

O=C(N1CCC2(CC1)C[C@H](CN1CCCCS1(=O)=O)CCO2)C1(c2cc(F)cc(F)c2)CCCC1
EC50 (Chikungunya virus; viral replication): 0.36 µM

O=C(Nc1ncc([N+](=O)[O-])s1)c1ccccc1O
lowest effective concentration (Chikungunya virus; viral protein synthesis, western blot; BHK-21; 6 h): 20 µM

COc1ccc(C(=O)/C=C/c2ccc(O)cc2)c(O)c1CC=C(C)C
inhibition (Chikungunya virus; replicon luciferase activity; BHK-21 CHIKV replicon cells; 20 µM, 48 h): ≥ 80%

CN(C)c1ccc(C2Nc3ccc4ccccc4c3C3=C2C(=O)CC(C)(C)C3)cc1Br (stereo not shown)
inhibition (rep main protease; viral replication, Gluc reporter; SARS-CoV-2; 20 µM): -4.45%

Nc1ncnc2c([C@@H]3N[C@H](CO)[C@@H](O)[C@H]3O)c[nH]c12
inhibition (Chikungunya virus; viral replication; HeLa, AF 15561; 1.6 µM): 12.3%

CC(C)(C)c1ccc(C(=O)Nc2cc3c(cc2OCc2ccccn2)CCC3)cc1
EC90 (Chikungunya virus; viral replication; NHDF): > 6 µM

O=C(N1CCC2(CC1)CC(CNS(=O)(=O)CCCCCl)CCO2)C1(c2ccccc2)CCCC1 (stereo not shown)
EC50 (Chikungunya virus; viral replication): ~1 µM

Cn1c(=O)c(C(=O)CCN2CCOCC2)c(O)c2ccccc21
inhibition (Chikungunya virus; virus particle release; 20 µM, added within 20 h post-infection): ~50%

CC[C@H](C)[C@H](NC(=O)[C@H](CC(C)C)NC(=O)[C@H](Cc1c[nH]c2ccccc12)NC(=O)[C@H](CCC(N)=O)NC(=O)[C@@H](NC(=O)[C@H](Cc1ccccc1)NC(=O)[C@H](C)NC(=O)[C@H](CCCCNC(=O)COCCOCCNC(=O)COCCOCCNC(=O)CC[C@H](NC(=O)CCCCCCCCCCCCCCCCCCC(=O)O)C(=O)O)NC(=O)[C@H](CCC(N)=O)NC(=O)[C@H](C)NC(=O)[C@@H](NC(=O)[C@H](CCCCN)NC(=O)[C@H](CC(=O)O)NC(=O)[C@H](CC(C)C)NC(=O)C(C)(C)NC(=O)[C@@H](NC(=O)[C@H](CO)NC(=O)[C@H](Cc1ccc(O)cc1)NC(=O)[C@H](CC(=O)O)NC(=O)[C@H](CO)NC(=O)[C@@H](NC(=O)[C@H](Cc1ccccc1)NC(=O)[C@@H](NC(=O)CNC(=O)[C@H](CCC(=O)O)NC(=O)C(C)(C)NC(=O)[C@@H](N)Cc1ccc(O)cc1)[C@@H](C)O)[C@@H](C)O)[C@@H](C)CC)[C@@H](C)CC)C(C)C)C(=O)N[C@@H](C)C(=O)NCC(=O)NCC(=O)N1CCC[C@H]1C(=O)N[C@@H](CO)C(=O)N[C@@H](CO)C(=O)NCC(=O)N[C@@H](C)C(=O)N1CCC[C@H]1C(=O)N1CCC[C@H]1C(=O)N1CCC[C@H]1C(=O)N[C@@H](CO)C(N)=O
serum AST (healthy subjects, single ascending dose; 0.5 mg, day 29): 22.1 ± 7 U/L

CCCCCCCCCCCCCCCC(=O)OCC(CSC[C@H](N)C(=O)N[C@@H](CO)C(=O)N[C@@H](CCCCN)C(=O)N[C@@H](CCCCN)C(=O)N[C@@H](CCCCN)C(=O)N[C@@H](CCCCN)C(=O)Nc1ccc(Cn2c(O)nc3c(N)nc(NCCCC)nc32)cc1)OC(=O)CCCCCCCCCCCCCCC (stereo partly shown)
infectivity (Chikungunya virus; viral infection; concentration not given): 167% and 158% and 163%

O=C(N1CCC2(CC1)C[C@@H](CN1CCCCS1(=O)=O)CCO2)C1(c2ccccc2)CCCC1
EC50 (Chikungunya virus; viral replication): 29 µM

CC(C)(C)c1ccc(C(=O)Nc2cc3c(cc2OC(F)(F)F)CCCCC3)cc1
EC90 (Chikungunya virus; viral replication; NHDF): 3.7 µM

CC(C)NC(=O)NCC1CCOC2(CCN(C(=O)C3(c4ccccc4)CCCC3)CC2)C1 (stereo not shown)
EC50 (Chikungunya virus; viral replication): ~10 µM

Excerpt of the above:
CCOc1cc2c(cc1NC(=O)c1ccc(C(C)(C)C)cc1)CCC2
EC90 (Chikungunya virus; viral replication; NHDF): > 6 µM

NC(=O)c1ncn([C@@H]2O[C@H](CO)[C@@H](O)[C@H]2O)n1
EC50 (Chikungunya virus; viral replication; BHK-21, CHIKV): 46 µM
